Results pooled from the literature.
Numbered parts are unrelated; each lists some results of a single study.

Block 1
Target: Beta-1 adrenergic receptor (ADRB1, Homo sapiens, UniProt P08588)
Sequence of UniProt P08588 (whole entry, looked up): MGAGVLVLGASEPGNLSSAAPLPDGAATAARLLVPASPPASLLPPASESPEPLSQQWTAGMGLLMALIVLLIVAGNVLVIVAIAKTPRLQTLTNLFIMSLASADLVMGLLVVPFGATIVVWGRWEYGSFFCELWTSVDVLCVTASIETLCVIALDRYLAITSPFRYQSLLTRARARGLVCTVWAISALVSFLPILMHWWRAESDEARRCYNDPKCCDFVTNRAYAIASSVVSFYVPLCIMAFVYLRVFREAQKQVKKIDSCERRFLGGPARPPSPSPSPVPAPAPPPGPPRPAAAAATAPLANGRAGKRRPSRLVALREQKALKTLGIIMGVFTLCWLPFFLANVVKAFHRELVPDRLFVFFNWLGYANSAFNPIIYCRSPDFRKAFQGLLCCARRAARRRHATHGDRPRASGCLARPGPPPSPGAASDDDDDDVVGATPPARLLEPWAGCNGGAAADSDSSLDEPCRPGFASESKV
Mode: antagonist
| Structure (SMILES) | IC50 [µM] |
| --- | --- |
| COc1ccccc1N1CCN(C(=O)c2ccc3[nH]c4c(c3c2)CCCC4)CC1 | ≥ 100 |
| Cc1occc1-c1nnc(SCc2cn3cccc(C)c3n2)o1 | ≥ 100 |
| Cc1ccc(-c2cc(C(=O)N3CCC(c4nc(C5CCOCC5)no4)C3)c3ccccc3n2)cc1C (stereo not shown) | ≥ 100 |
| OC(c1nc(Nc2cccc(N3CCOCC3)c2)n[nH]1)C1CC1 (stereo not shown) | ≥ 100 |
| CC(=O)N[S+](=O)([O-])c1ccc(NC(=O)c2cc(-c3ccccc3)nc3ccccc23)cc1 | ≥ 100 |
| FC(F)(F)c1cccc(-c2noc(-c3c[nH]nc3-c3ccccc3)n2)c1 | ≥ 100 |
| Cn1cc(-c2ccc3ncc(-c4cccc(NC5CNC5)n4)n3c2)cn1 | ≥ 100 |
| C=CCN1CCN(Cc2cccc(OCC(O)CN(C)C3CCCCC3)c2)CC1 (stereo not shown) | ≥ 100 |
| COc1ccccc1N1CCN([C@H]2[C@@H]3OC[C@@H](O3)[C@@H](NCc3ccc4c(c3)OCO4)[C@@H]2O)CC1 | ≥ 100 |
| c1ccc(CCCc2noc(-c3ccc(N4CCCNCC4)nc3)n2)cc1 | ≥ 100 |
| Fc1ccc(NC(=S)N[C@H]2CO[C@H]3[C@@H]2OC[C@@H]3n2nnnc2Oc2ccc(-n3cncn3)cc2)cc1 | ≥ 100 |
| COc1ccccc1N1CCN(C(=O)C(C)[C@@H]2CCc3c(C)cc(OCCN4CCOCC4)c(C)c3C2)CC1 (stereo partly shown) | ≥ 100 |
| Cc1cc(-c2cc(-c3cccc(C(F)(F)F)c3)nc3c(C)noc23)ccn1 | ≥ 100 |
| CN(C)CCNc1cc(-c2cccs2)nc2ccccc12 | ≥ 100 |
| Nn1c(SCc2cc(=O)oc3cc(O)ccc23)nnc1-c1ccccc1Br | ≥ 100 |
| Cc1noc2c(N3CCNC(=O)C3)cc(-c3cccc(C(F)(F)F)c3)nc12 | ≥ 100 |
| Cn1ccc(Nc2nccc3c(=O)cc(-c4cn[nH]c4)oc23)n1 | ≥ 100 |
| CCOc1ccccc1N1CCN([S+](=O)([O-])c2cc(OC)ccc2OC)CC1 | ≥ 100 |
| Cc1noc2c(-c3cccnc3NCc3cnccn3)cc(-c3ccccc3)nc12 | ≥ 100 |

Block 2
Target: DNA polymerase theta, ATPase domain (POLQ, Homo sapiens, UniProt O75417)
Sequence of UniProt O75417 (whole entry, unmodified, looked up): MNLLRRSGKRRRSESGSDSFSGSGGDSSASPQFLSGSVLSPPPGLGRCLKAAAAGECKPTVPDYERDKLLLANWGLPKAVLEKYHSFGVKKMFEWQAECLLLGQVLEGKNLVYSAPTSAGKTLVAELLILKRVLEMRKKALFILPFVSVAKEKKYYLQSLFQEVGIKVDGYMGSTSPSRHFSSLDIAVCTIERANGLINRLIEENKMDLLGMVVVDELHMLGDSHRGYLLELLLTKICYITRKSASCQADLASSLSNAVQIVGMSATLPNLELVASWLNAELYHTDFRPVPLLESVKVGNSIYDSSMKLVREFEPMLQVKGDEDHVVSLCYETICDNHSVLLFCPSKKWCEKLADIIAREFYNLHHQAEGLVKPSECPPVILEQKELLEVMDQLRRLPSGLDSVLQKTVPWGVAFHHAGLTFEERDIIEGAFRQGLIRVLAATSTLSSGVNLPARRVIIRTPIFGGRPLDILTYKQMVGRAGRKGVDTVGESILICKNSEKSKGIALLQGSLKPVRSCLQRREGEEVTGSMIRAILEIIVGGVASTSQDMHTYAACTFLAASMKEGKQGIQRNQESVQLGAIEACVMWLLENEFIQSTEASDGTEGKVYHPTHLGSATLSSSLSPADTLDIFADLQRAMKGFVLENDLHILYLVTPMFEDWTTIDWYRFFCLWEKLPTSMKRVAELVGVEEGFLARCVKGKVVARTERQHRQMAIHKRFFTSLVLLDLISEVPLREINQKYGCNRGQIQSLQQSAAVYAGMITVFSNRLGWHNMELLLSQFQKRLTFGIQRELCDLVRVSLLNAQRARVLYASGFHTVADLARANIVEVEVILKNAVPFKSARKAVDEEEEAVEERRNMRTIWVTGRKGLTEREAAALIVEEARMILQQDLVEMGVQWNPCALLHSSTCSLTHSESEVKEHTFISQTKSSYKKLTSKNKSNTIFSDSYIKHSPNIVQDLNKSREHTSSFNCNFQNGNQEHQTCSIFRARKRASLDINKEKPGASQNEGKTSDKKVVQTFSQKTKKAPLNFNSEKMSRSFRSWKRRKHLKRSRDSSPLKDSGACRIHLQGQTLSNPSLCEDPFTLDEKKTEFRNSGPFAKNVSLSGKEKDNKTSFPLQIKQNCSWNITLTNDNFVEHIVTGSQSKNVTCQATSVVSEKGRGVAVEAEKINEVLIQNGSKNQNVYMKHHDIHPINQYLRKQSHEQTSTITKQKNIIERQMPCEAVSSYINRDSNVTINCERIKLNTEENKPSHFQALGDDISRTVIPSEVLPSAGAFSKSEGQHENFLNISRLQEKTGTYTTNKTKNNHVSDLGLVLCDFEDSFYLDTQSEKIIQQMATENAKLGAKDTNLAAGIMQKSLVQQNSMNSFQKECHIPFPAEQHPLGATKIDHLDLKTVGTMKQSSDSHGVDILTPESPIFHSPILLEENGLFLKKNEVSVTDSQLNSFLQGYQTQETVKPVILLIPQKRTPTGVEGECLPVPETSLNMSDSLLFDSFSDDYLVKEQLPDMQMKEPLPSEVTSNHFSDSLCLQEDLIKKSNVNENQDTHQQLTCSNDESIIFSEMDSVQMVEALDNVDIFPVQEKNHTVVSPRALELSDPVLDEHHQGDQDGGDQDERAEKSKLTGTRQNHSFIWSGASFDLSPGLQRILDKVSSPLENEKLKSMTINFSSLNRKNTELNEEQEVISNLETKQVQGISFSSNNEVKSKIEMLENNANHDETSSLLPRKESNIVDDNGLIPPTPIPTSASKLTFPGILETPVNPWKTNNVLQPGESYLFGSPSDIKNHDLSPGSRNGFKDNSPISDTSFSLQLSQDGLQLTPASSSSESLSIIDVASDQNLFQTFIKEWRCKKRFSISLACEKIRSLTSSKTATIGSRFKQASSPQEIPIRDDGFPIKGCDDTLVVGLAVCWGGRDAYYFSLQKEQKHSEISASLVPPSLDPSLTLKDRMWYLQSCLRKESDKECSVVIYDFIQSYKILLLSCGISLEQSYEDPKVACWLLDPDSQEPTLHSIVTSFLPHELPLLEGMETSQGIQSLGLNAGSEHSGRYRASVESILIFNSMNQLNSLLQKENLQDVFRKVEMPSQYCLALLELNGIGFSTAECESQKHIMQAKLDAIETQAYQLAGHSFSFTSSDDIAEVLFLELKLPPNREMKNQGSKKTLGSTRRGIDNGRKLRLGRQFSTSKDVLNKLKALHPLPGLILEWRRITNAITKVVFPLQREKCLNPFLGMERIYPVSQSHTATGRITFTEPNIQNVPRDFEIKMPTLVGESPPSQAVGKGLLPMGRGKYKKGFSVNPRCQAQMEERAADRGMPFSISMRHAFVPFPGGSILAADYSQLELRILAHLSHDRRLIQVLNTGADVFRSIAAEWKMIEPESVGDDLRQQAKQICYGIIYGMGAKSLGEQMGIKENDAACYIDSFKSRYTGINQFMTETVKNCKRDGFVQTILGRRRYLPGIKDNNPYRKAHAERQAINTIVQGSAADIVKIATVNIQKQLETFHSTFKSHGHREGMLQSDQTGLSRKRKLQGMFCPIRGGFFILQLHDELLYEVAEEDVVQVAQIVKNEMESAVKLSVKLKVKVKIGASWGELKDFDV
Observed: enzyme activity
Mode: inhibitor
Tested at: 77 µM
Reference: untreated
| SMILES | remaining activity [%] |
| --- | --- |
| CN1CC(=O)N=C1NC(=O)Nc1cccc(Cl)c1 | 99.8 |
| NS(=O)(=O)c1cccc2c1c([N+](=O)[O-])cc1nc(O)c(O)nc12 | 101 |
| CNC(=O)c1ccccc1Nc1nc(Nc2ccc(N3CCOCC3)cc2OC)ncc1Cl | 98.3 |
| Cc1ccc(S(=O)(=O)Cc2nc(-c3ccc(C(=O)NCc4cccnc4)cc3)oc2C)cc1 | 102 |
| C=CC[N@@+]12CC[C@@]34c5ccccc5N5/C=C6/[C@H]7C[C@H]8[C@@]9(CC[N@@+]8(CC=C)C/C7=C/CO)c7ccccc7N(/C=C(/[C@@H](C[C@@H]31)/C(=C\CO)C2)[C@H]54)[C@@H]69 | 91.9 |

Block 3
Target: Serine/threonine-protein kinase MRCK alpha (CDC42BPA, Homo sapiens, UniProt Q5VT25)
Sequence of UniProt Q5VT25 (whole entry, looked up): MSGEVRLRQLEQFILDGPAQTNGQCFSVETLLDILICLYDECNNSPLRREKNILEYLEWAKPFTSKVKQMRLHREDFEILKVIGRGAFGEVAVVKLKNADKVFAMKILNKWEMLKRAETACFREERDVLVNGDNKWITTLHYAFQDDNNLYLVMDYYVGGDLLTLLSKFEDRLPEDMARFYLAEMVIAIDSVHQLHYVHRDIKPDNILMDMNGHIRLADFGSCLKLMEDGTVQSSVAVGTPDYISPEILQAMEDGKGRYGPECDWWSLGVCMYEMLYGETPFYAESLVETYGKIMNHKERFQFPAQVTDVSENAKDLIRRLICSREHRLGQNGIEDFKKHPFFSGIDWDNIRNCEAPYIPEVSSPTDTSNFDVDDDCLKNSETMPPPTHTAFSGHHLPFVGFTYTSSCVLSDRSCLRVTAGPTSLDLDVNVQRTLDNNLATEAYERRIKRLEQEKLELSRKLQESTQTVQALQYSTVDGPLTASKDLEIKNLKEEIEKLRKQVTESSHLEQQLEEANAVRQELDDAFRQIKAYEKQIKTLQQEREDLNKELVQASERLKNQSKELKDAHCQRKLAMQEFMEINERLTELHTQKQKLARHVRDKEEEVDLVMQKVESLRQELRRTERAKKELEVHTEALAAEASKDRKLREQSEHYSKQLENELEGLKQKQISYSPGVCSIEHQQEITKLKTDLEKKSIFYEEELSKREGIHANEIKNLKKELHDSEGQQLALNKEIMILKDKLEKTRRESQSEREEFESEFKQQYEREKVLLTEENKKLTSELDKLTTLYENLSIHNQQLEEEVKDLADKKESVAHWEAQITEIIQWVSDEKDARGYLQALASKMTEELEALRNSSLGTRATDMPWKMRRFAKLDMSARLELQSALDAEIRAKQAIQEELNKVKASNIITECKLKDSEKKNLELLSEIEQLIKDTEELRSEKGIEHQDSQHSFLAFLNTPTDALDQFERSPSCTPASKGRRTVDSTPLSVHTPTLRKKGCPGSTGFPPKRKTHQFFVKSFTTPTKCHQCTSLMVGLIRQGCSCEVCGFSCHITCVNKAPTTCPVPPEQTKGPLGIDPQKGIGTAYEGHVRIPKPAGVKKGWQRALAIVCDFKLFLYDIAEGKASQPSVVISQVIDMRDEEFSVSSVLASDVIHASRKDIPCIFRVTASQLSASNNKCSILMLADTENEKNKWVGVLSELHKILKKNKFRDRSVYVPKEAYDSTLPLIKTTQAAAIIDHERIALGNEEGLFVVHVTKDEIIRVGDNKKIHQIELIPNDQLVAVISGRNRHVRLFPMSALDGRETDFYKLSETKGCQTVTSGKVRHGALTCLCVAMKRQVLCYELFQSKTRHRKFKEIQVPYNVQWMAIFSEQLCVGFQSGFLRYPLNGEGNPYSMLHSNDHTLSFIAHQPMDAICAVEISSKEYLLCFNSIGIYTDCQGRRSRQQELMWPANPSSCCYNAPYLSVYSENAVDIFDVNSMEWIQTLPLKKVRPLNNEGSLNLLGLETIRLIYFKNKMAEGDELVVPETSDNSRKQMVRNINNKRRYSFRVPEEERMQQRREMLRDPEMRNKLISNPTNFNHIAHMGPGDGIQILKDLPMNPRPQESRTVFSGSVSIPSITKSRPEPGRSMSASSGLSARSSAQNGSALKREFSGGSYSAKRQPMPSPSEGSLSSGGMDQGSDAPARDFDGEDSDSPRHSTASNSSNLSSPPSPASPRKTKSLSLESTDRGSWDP
Observed: enzyme activity
Mode: inhibitor
Tested at: 0.5 µM
Reference: control
| Compound | remaining activity |
| --- | --- |
| Nc1ncnc2c1cnn2-c1ccccc1 | 90.2% |
| Cc1cncc2cccc(S(=O)(=O)N3CCCN(C(=O)CN)C[C@@H]3C)c12 | 95.1% |
| CCc1[nH]c(-c2ccc(OC)cc2)nc1-c1ccncc1 | 96.3% |
| Cc1ccc(NC2=CC(=O)c3sc(C)nc3C2=O)cc1 | 77.6% |
| CCCC(=O)Oc1ccc2[nH]c(C(=O)c3cc4ccccc4[nH]3)cc2c1 | 98% |
| CSc1nc(-c2ccnc(N[C@@H](C)c3ccccc3)c2)c(-c2ccc(F)cc2)[nH]1 (racemic) | 97.5% |
| NC(=O)c1ccc(N(C(N)=O)c2c(F)cccc2F)nc1-c1ccc(F)cc1F | 93.8% |
| Cc1cc(Nc2nc(-c3ccccc3)nc3ccccc23)n[nH]1 | 108% |
| CC[n+]1c(/C=C/N(C)c2ccccc2)n(-c2ccccc2)c2ccc(-c3nc4ccccc4s3)cc21 | 102% |
| N#CC(=C(N)Sc1ccc(N)cc1)c1ccccc1C(F)(F)F | 103% |
| O=S(=O)(NCCNC/C=C/c1ccc(Br)cc1)c1cccc2cnccc12 | 97.5% |
| COc1cc(Nc2c(C#N)cnc3cc(OCCCN4CCN(C)CC4)c(OC)cc23)c(Cl)cc1Cl | 112% |
| Oc1ccc(Nc2nc(-c3ccc(Cl)cc3)cs2)cc1 | 87.1% |
| CC#CC(=O)Nc1cc2c(Nc3ccc(F)c(Cl)c3)ncnc2cn1 | 93.1% |
| O=C1Cc2c([nH]c3ccc([N+](=O)[O-])cc23)-c2ccccc2N1 | 96.2% |
| Nc1nccc(-c2c(-c3ccc(F)cc3)ncn2C2CCNCC2)n1 | 101% |
| O=C1NC(=O)C(c2c[nH]c3ccccc23)=C1c1c[nH]c2ccccc12 | 89.9% |
| CC(=O)c1ccc(N2CCOCC2)cc1O | 100% |
| Fc1ccc(-c2nc3n(c2-c2ccncc2)CCS3)cc1 | 88.7% |
| COc1ccc(S(=O)(=O)N(CCO)c2ccccc2CN(C)CC=Cc2ccc(Cl)cc2)cc1 | 100% |
| CC(C)(C)n1nc(Cc2cccc3ccccc23)c2c(N)ncnc21 | 92.5% |

Block 4
Compound: O=C(NCc1ncc(C(F)(F)F)cc1Cl)c1ccc2c(c1)C1(CCS(=O)(=O)CC1)[C@@H](C1CC1)N2S(=O)(=O)c1ccc(F)cc1
Observed: cell-free assay
Method: competition with immobilised ligand
Tested at: 1 µM
| target | remaining binding |
| --- | --- |
| Dual specificity protein kinase TTK (TTK, Homo sapiens, UniProt P33981) | 100% |
| Tyrosine-protein kinase ABL1, non-phosphorylated (ABL1, Homo sapiens, UniProt P00519, F317L) | 68% |
| Casein kinase I isoform gamma-3 (CSNK1G3, Homo sapiens, UniProt Q9Y6M4) | 100% |
| Fibroblast growth factor receptor 4 (FGFR4, Homo sapiens, UniProt P22455) | 100% |
| 5'-AMP-activated protein kinase catalytic subunit alpha-2 (PRKAA2, Homo sapiens, UniProt P54646) | 100% |
| SRSF protein kinase 3 (SRPK3, Homo sapiens, UniProt Q9UPE1) | 100% |
| Casein kinase I isoform gamma-2 (CSNK1G2, Homo sapiens, UniProt P78368) | 85% |
| Mast/stem cell growth factor receptor Kit (KIT, Homo sapiens, UniProt P10721, D816V) | 89% |
| Serine/threonine-protein kinase DCLK3 (DCLK3, Homo sapiens, UniProt Q9C098) | 69% |
| Mast/stem cell growth factor receptor Kit (KIT, Homo sapiens, UniProt P10721, D816H) | 64% |
| Phosphatidylinositol 4,5-bisphosphate 3-kinase catalytic subunit beta isoform (PIK3CB, Homo sapiens, UniProt P42338) | 75% |
| Phosphatidylinositol 4-kinase beta (PI4KB, Homo sapiens, UniProt Q9UBF8) | 100% |
| Calcium/calmodulin-dependent protein kinase type II subunit gamma (CAMK2G, Homo sapiens, UniProt Q13555) | 84% |

A few entries again (block 2):
| SMILES | remaining activity [%] |
| --- | --- |
| Cc1ccc(S(=O)(=O)Cc2nc(-c3ccc(C(=O)NCc4cccnc4)cc3)oc2C)cc1 | 102 |
| CN1CC(=O)N=C1NC(=O)Nc1cccc(Cl)c1 | 99.8 |
| NS(=O)(=O)c1cccc2c1c([N+](=O)[O-])cc1nc(O)c(O)nc12 | 101 |
| C=CC[N@@+]12CC[C@@]34c5ccccc5N5/C=C6/[C@H]7C[C@H]8[C@@]9(CC[N@@+]8(CC=C)C/C7=C/CO)c7ccccc7N(/C=C(/[C@@H](C[C@@H]31)/C(=C\CO)C2)[C@H]54)[C@@H]69 | 91.9 |
